Experimental data pooled from the literature.
Lines come from different studies, so protocols differ. Several values in a cell are separate wells, animals, samples, runs or records. ± marks the error that the study gave.

SMILES | assay | test system | conditions | scale | measurement | value
N#Cc1ccn2c(-c3ccncc3)c(-c3ccc(F)cc3)nc2c1 | kinase binding, competitor, MIB/MS competition, refers to: FPK1 | Candida albicans cell lysate | 100 nM | reference: DMSO | log2 fold change | -0.131
CC(=O)NCC(=O)NCC(=O)N[C@H](C(=O)N[C@@H](Cc1ccc(O)cc1)C(=O)N[C@@H](CO)C(=O)N[C@H]1CSSC[C@@H](C(=O)N[C@@H](CCCNC(=N)N)C(=O)N2CCC[C@H]2C(=O)N[C@@H](CCC(N)=O)C(=O)N[C@@H](CCCNC(=N)N)C(=O)NCC(=O)NCCC(=O)N[C@@H](CCCCNC(=O)CN(CC(=O)NCCCC[C@H](NC(=O)CCNC(=O)CNC(=O)[C@H](CCCNC(=N)N)NC(=O)[C@H](CCC(N)=O)NC(=O)[C@@H]2CCCN2C(=O)[C@H](CCCNC(=N)N)NC(=O)[C@@H]2CSSC[C@H](NC(=O)[C@H](CO)NC(=O)[C@H](Cc3ccc(O)cc3)NC(=O)[C@@H](NC(=O)CNC(=O)CNC(C)=O)[C@@H](C)O)C(=O)N[C@@H](Cc3c[nH]cn3)C(=O)N[C@@H](Cc3ccccc3)C(=O)NCC(=O)N[C@@H](C)C(=O)N[C@@H](CC(C)C)C(=O)N[C@@H]([C@@H](C)O)C(=O)N[C@@H](Cc3c[nH]c4ccccc34)C(=O)N[C@@H](C(C)C)C(=O)N2)C(N)=O)C(=O)CCN)C(N)=O)NC(=O)[C@H](C(C)C)NC(=O)[C@H](Cc2c[nH]c3ccccc23)NC(=O)[C@H]([C@@H](C)O)NC(=O)[C@H](CC(C)C)NC(=O)[C@H](C)NC(=O)CNC(=O)[C@H](Cc2ccccc2)NC(=O)[C@H](Cc2c[nH]cn2)NC1=O)[C@@H](C)O | – | healthy BALB/c mice | subcutaneous, 0.08 mg/kg, 14 d, single dose | – | haematocrit | 47.1%
N#CCC1CCN(c2nc(Nc3ccc(N4CCC(O)CC4)cc3)c3c(=O)[nH]ncc3n2)CC1 | Olink multiplex, refers to: CDCP1 | human, serum | 20 mg, day 15 | reference: baseline | fold change from baseline | -1.1
Cc1cc([C@H]2C[C@H]3[C@@H](CF)SC(N)=N[C@@]3(c3ccc(F)cc3F)CO2)on1 | refers to: Aβx-40 | wild-type mouse, brain | subcutaneous, 30 mg/kg, 1 h | – | brain Aβ40 level | 1.76 ng/g
Oc1nc2nonc2cc1Nc1c(F)c(F)c(F)c(F)c1F | indirect calorimetry | Western diet-fed mice | oral gavage, 130 mg/kg, 4 h | reference: vehicle | carbon dioxide production | increased
COc1cc(Nc2ncc3c(n2)-c2ccc(Cl)cc2C(c2c(F)cccc2OC)=NC3)ccc1C(=O)O | – | mouse, NB-SD neuroblastoma xenograft | 10.4 mg/kg | direction not given | median response score | 2
Cn1cc(Nc2nc(N)nc(-c3cccc(-n4ccc5cc(C6CC6)cc(F)c5c4=O)c3CO)n2)cn1 | CD63 upregulation, anti-IgE-induced | human, multiple ascending dose, whole blood basophils ex vivo | 150 mg twice daily, day 14, 8 h | – | inhibition | 91%
OC(CCN1CCCCC1)(c1ccccc1)C1CC2C=CC1C2 (stereo not drawn) | resting-state EEG | healthy elderly humans | oral, 4 mg, eyes closed, LS mean | reference: baseline | change in EEG Beta1-power Pz-O1 | -16.6%
NC(=O)c1cnc2[nH]ccc2c1N[C@@H]1[C@@H]2CC3C[C@H]1C[C@@](O)(C3)C2 | CD4+ memory T cells, flow cytometry | Caucasian humans, peripheral blood | 200 mg single dose | reference: baseline | percent change | 0.3%
O=C(O)CNC(=O)Cc1ccccc1 | – | ventricular cardiomyocytes, C57BL/6 mouse | dose not given, 0.84 s | – | sarcomere length | 1.63 µm
CC#CC(=O)N[C@H]1CCCN(c2c(F)cc(C(N)=O)c3[nH]c(C)c(C)c23)C1 | – | human, peripheral blood | 10 mg once daily, day 15 | reference: baseline | B cells | 171 % change
N#Cc1ccc2c(c1)[C@H]1CCCN(C(=O)c3ccc4[nH]cnc4c3)[C@H]1C2 | – | human, urine | 80 mg, 336 h, day 14 over day -1 | reference: placebo and baseline | total urinary corticosteroids | 110 % change
C=CCn1c(=O)c2cnc(Nc3ccc(N4CCN(C)CC4)cc3)nc2n1-c1ccc2c(n1)[C@@](O)(CC)CC2 | – | TOV21G xenograft, BALB/c nude mice | oral, 80 mg/kg once daily x 19, day 20 | reference: vehicle | tumour growth inhibition | 104%
COc1ccccc1[C@H](Cn1c(=O)n(C(C)(C)C(=O)O)c(=O)c2c(C)c(-c3ncco3)sc21)OC1CCOCC1 | [1-13C]acetate infusion, isotopomer analysis | overweight or obese healthy men, plasma VLDL-TG palmitate | oral, 20 mg single dose, 8 h post-dose, together with: oral fructose | – | fractional hepatic DNL | 16.5 % new palmitate
CSCCNc1nc(SCCC(F)(F)F)nc2c1ncn2[C@@H]1O[C@H](COP(=O)(O)OP(=O)(O)C(Cl)(Cl)P(=O)(O)O)[C@@H](O)[C@H]1O | ADP-induced platelet aggregation, LTA | human patients, platelet-rich plasma | dose not given, 15 min, together with: ADP 20 µM | – | inhibition | 34.2 ± 22.7%
CN(C)C(=O)Oc1cccc([N+](C)(C)C)c1 | neuromuscular block reversal | rat | dose not given, 4.5 (unit not given), together with: cisatracurium | reference: T1 twitch | train-of-four ratio | 14.2
CCCCCN1C[C@H](O)[C@@H](O)[C@H](O)[C@@H]1CO | balance beam test | Hexb-/- mouse | dose not given | reference: untreated | delay in beam-crossing failure | 2 week
O=C1Nc2cc3[nH]nc(-c4ccncc4)c3cc2CN1Cc1ccccc1 | RECIST v1.1 | human, relapsed or refractory advanced solid tumours | intravenous, 7.2 mg/kg, pooled schedules | – | stable disease, best response | 20%
N#Cc1ccc2c(-c3ccncc3)c(-c3ccc(F)cc3)nn2c1 | kinase binding, competitor, MIB/MS competition, refers to: TPK2 | Candida albicans cell lysate | 10 µM | reference: DMSO | log2 fold change | 0.109
CC1(C)CCC(c2ccc(Cl)cc2)=C(CN2CCN(c3ccc(C(=O)NS(=O)(=O)c4ccc(N[C@H](CCN5CCOCC5)CSc5ccccc5)c(S(=O)(=O)C(F)(F)F)c4)cc3)CC2)C1 | cell killing, flow cytometry PI exclusion | canine blood CD21+ B cells, dog 32 | 24 h | – | EC50 | 0.376 µM
CN[C@@H]1COc2c(S(=O)(=O)NC(=O)Nc3c4c(cc5c3CCC5)CCC4)cnn2C1 | refers to: IL-18 | human participants, whole blood ex vivo | 150 mg single dose, 336 h, IL-18, circulating, adjusted for, together with: LPS/ATP | reference: baseline | inhibition | 13.7%

SMILES | assay | test system | conditions | scale | measurement | value
C[C@@H]1CCC[C@H](n2cnc(-c3cc(Cl)ccc3-n3cc(Cl)nn3)cc2=O)c2cc(ccn2)-c2c(cnn2C(F)F)NC1=O | – | rabbit plasma | IC2× aPTT, Actin FS reagent | – | concentration for aPTT prolongation | 2200 nM
Cc1cc(F)cc2c(CCC(=O)N[C@@H]3C(=O)NC[C@H]3O)c(-c3ccc(F)cc3)[nH]c12 | immunohistochemistry | mice, APOL1 G2, single copy, kidney | oral, 30 mg/kg twice daily, together with: IFNγ plasmid injection | direction not given | nephrin H-score | 101 and 100 and 99.5 and 110 and 112
COc1ncc(-c2nc3c(n2C(C)C)[C@H](c2ccc(Cl)cc2)N(c2cc(Cl)cn(C)c2=O)C3=O)c(OC)n1 | International Working Group criteria | human acute myeloid leukemia patients | oral, 250 mg, response CRi, high-dose, recommended dose for expansion | – | best overall response | 13.3%
O=C(O)C1=CC(=C(c2ccc(O)c(C(=O)O)c2)c2ccc(O)c(C(=O)O)c2)C=CC1=O | immunohistochemistry, refers to: F4/80 | C57BL/6J mouse MC-38 tumour, tumour necrotic areas | peritumoral, dose not given | reference: vehicle | macrophage signal | decreased
COc1ccc(-c2cncc(N[C@@H](C)c3cccc(NC(=O)c4cncc(C)c4)c3)n2)cc1OC | refers to: rno-miR-194-5p | rat SU5416/hypoxia model, lung | dose not given | reference: SU5416/hypoxia vehicle | fold change | 0.946
CC(C)NCC(O)c1ccc(O)c(O)c1 (stereo not drawn) | – | ventricular cardiomyocytes, C57BL/6 mouse | dose not given, 0.808 s | – | sarcomere length | 1.6 µm
Cc1oncc1C(=O)Nc1ccc(C(F)(F)F)cc1 | refers to: dihydroorotate | female CD-1 mice, pooled urine | oral, 10 mg/kg daily, 8-24 h after dose 3, 10-day dosing | – | DHO concentration | 325 ± 4.96 µM
C[C@H](Oc1ccc(Br)cc1-c1ccon1)C(=O)O | handgrip dynamometry | healthy human males | 600 mg once daily, multiple doses | reference: placebo | peak grip force | -2.1 kg
N#Cc1ccc2c(c1)[C@H]1CCCN(C(=O)c3ccc4[nH]cnc4c3)[C@H]1C2 | refers to: Triglycerides | human | 80 mg once daily, day 28, adjusted mean | – | change from baseline | -34.9 mg/dL
C1=C/COCc2cc(ccc2OCCN2CCCC2)Nc2nccc(n2)-c2cccc(c2)COC/1 | – | BALB/c mice rhEPO-induced polycythemia | 120 mg/kg | – | hematocrit | 46.9% and 47.1% and 52.7% and 51.6% and 53.7% and 51.2%
CC(C)[C@H](C(=O)Nc1ccc(C(=O)NO)cc1)c1ccccc1 | volumetric MRI | human, left IAC schwannoma | 10 days treatment, post-treatment, day 23 | – | annual tumour growth rate | 50.1 %/year
C[C@@H](NC(=O)N1C(=O)[C@H](Cc2ccnc(N)c2)[C@H]1C(=O)O)C1CCCCC1 | – | human | iv infusion, 1.5 mg/kg/h, 24 h, unit not given | reference: baseline | PT AUEC | 148
CCN(CC)CCNC(=O)c1cc(S(C)(=O)=O)cnc1OC.Cl | catalepsy bar test | female CD-1 mice | intraperitoneal, 200 mg/kg, 90 min after dosing | – | time on bar | 0.43 s and 6.79 s and 0.83 s and 2.02 s and 0.5 s
C[C@H]1C[C@H]2CSC(N)=N[C@@]2(c2nc(NC(=O)c3ccc(OC(F)F)cn3)cs2)CO1 | refers to: Aβx-40 | healthy adults, plasma | 40 mg single dose, 8 h post-dose | reference: placebo | percent change from baseline | -51.6%
Cc1n[nH]c2ccc(-c3cc(OC[C@@H](N)Cc4ccccc4)cnc3-c3ccoc3)cc12 | kinase binding, competitor, MIB/MS competition, refers to: IKS1 | Candida albicans cell lysate | 1 µM | reference: DMSO | log2 fold change | -0.0927
C[C@@H](O)CCOC(=O)C[C@@H](C)O | – | human | oral drink, dose not given, 60 min post dose, median, all participants | – | plasma insulin | 1120 pg/mL
CC#Cc1cncc(-c2ccc3c(c2)[C@@]2(N=C(C)C(N)=N2)[C@]2(CC[C@H](OC)CC2)C3)c1 | refers to: Aβ40 and Aβ42 | C57BL/6 mice, brain | oral, dose not given | – | time to maximum effect | 3 h
C=Cc1c(C)c2cc3nc(c(CC(=O)O)c4[nH]c(cc5nc(cc1[nH]2)C(C)=C5CC)c(C)c4C(=O)O)[C@@H](CCC(=O)O)[C@@H]3C | flow cytometry | 4T1 tumour-bearing mice, spleen | 2.5 mg/kg | – | CD80+ CD86+ dendritic cells | 24.5% and 25.5% and 27.1%
Cc1cc(Nc2ccc(S(F)(F)(F)(F)F)cc2)n2nc(C(C)(F)F)nc2n1 | refers to: dihydroorotate | female CD-1 mice, blood | oral, 300 mg/kg daily, 24 h after dose 10 | – | DHO concentration | 1.6 ± 0.102 µM
Cc1ccc([C@@H]2O[C@H](CO)[C@@H](O)[C@H](O)[C@H]2O)cc1Cc1ccc(-c2ccc(F)cc2)s1 | – | Japanese type 2 diabetes patients | 200 mg, day 17 | reference: day 1 | change in fasting plasma glucose | -51 mg/dL
Cn1cc(Nc2nccc(-c3ccc4c(c3)CN(C3COC3)CC[C@H]4NC(=O)c3cn(C(C)(C)C)nn3)n2)cn1 | refers to: PKCθ signaling in T-cells | splenic B cells, mice | 30 mg/kg, IgD-activated in vivo | reference: vehicle, direction not given | pathway activation z-score | 2.69

Excerpt of the above:
SMILES | assay | test system | conditions | scale | measurement | value
CC1(C)CCC(c2ccc(Cl)cc2)=C(CN2CCN(c3ccc(C(=O)NS(=O)(=O)c4ccc(N[C@H](CCN5CCOCC5)CSc5ccccc5)c(S(=O)(=O)C(F)(F)F)c4)cc3)CC2)C1 | cell killing, flow cytometry PI exclusion | canine blood CD21+ B cells, dog 32 | 24 h | – | EC50 | 0.376 µM
CN[C@@H]1COc2c(S(=O)(=O)NC(=O)Nc3c4c(cc5c3CCC5)CCC4)cnn2C1 | refers to: IL-18 | human participants, whole blood ex vivo | 150 mg single dose, 336 h, IL-18, circulating, adjusted for, together with: LPS/ATP | reference: baseline | inhibition | 13.7%
C[C@@H]1CCC[C@H](n2cnc(-c3cc(Cl)ccc3-n3cc(Cl)nn3)cc2=O)c2cc(ccn2)-c2c(cnn2C(F)F)NC1=O | – | rabbit plasma | IC2× aPTT, Actin FS reagent | – | concentration for aPTT prolongation | 2200 nM
Cc1cc(F)cc2c(CCC(=O)N[C@@H]3C(=O)NC[C@H]3O)c(-c3ccc(F)cc3)[nH]c12 | immunohistochemistry | mice, APOL1 G2, single copy, kidney | oral, 30 mg/kg twice daily, together with: IFNγ plasmid injection | direction not given | nephrin H-score | 101 and 100 and 99.5 and 110 and 112
COc1ncc(-c2nc3c(n2C(C)C)[C@H](c2ccc(Cl)cc2)N(c2cc(Cl)cn(C)c2=O)C3=O)c(OC)n1 | International Working Group criteria | human acute myeloid leukemia patients | oral, 250 mg, response CRi, high-dose, recommended dose for expansion | – | best overall response | 13.3%
O=C(O)C1=CC(=C(c2ccc(O)c(C(=O)O)c2)c2ccc(O)c(C(=O)O)c2)C=CC1=O | immunohistochemistry, refers to: F4/80 | C57BL/6J mouse MC-38 tumour, tumour necrotic areas | peritumoral, dose not given | reference: vehicle | macrophage signal | decreased
COc1ccc(-c2cncc(N[C@@H](C)c3cccc(NC(=O)c4cncc(C)c4)c3)n2)cc1OC | refers to: rno-miR-194-5p | rat SU5416/hypoxia model, lung | dose not given | reference: SU5416/hypoxia vehicle | fold change | 0.946
